# Literature values, collected from citations in different studies.
# Lines come from different studies, so protocols differ.
SMILES,tested on,assay,system,setting,endpoint,result
O=C(Nc1cccc(-c2cccc(-c3nc4ccccc4[nH]3)c2)c1)NC1CC1c1ccccc1 (stereo not shown),Plasmodium falciparum,whole cell extended time,3D7,72 h,IC50,1070 nM
CCN(c1cc(-c2ccc(CN3CCOCC3)cc2)cc(C(=O)NCc2c(C)cc(C)[nH]c2=O)c1C)C1CCOCC1,,,epithelioid sarcoma patients,phase II basket,IRC-assessed ORR,15%
CCCCCCc1c(C)nc2cc(OC)ccc2c1O,Plasmodium falciparum,whole cell extended time,3D7,72 h,IC50,120 nM
CC1(C)S[C@@H]2[C@H](NC(=O)[C@H](N)c3ccccc3)C(=O)N2[C@H]1C(=O)O,Acinetobacter baumannii,,clinical isolate RKI-No_32/16,,MIC,> 16 µg/mL
Cc1[nH]c(C)c(-c2ccc(OCCCc3ccccn3)cc2)c(=O)c1Br,Plasmodium falciparum,whole cell extended time,3D7,72 h,IC50,210 nM
CCNS(=O)(=O)c1ccc(OC)cc1C1(O)CCN(Cc2cccc(Oc3ccccc3OC)c2)CC1,human CCR8 F46A mutant (TM1),"IP accumulation, agonist",,,EC50,50 nM
C=Cc1cc(NC(=O)N2CCc3cc(OC)c(C(F)(F)F)cc32)cc(-c2cccnc2)c1,Plasmodium falciparum,whole cell extended time,3D7,72 h,IC50,700 nM
COc1ccccc1Oc1cccc(CN2CCC(NC(=O)C(CCN3CCCC3)c3ccccc3)CC2)c1 (stereo not shown),human CCR8 F254A mutant (TM6),"IP accumulation, agonist",,,EC50,65 nM
C[C@H]1COCCN1c1nc(-c2cnc(N)cc2C(F)F)nc(N2CCOCC2)n1,MOLT-4,,,,GI50,212 nM
COc1ccccc1Oc1cccc(CN2CCC(NC(=O)C3CC(=O)Nc4ccccc43)CC2)c1 (stereo not shown),human CCR8 S110H mutant (TM3),"IP accumulation, agonist",,,EC50,> 10000 nM
Nc1cc(C(F)(F)F)c(-c2nc(N3CCOCC3)nc(N3CCOCC3)n2)cn1,786-O,,,,GI50,2080 nM
COc1ccccc1Oc1cccc(CN2CCC3(CC2)C(=O)NCN3CCc2ccccc2)c1,human CCR8 F254A mutant (TM6),"IP accumulation, agonist",,,EC50,0.57 nM
CNC(C)C1CCC(N)C(OC2C(N)CC(N)C(OC3OCC(C)(O)C(NC)C3O)C2O)O1 (stereo not shown),Enterobacter cloacae,,clinical isolate RKI 1026/14-1,,MIC,1 µg/mL

# For quick reference, copied from above:
SMILES,tested on,assay,system,setting,endpoint,result
CCNS(=O)(=O)c1ccc(OC)cc1C1(O)CCN(Cc2cccc(Oc3ccccc3OC)c2)CC1,human CCR8 F46A mutant (TM1),"IP accumulation, agonist",,,EC50,50 nM
C=Cc1cc(NC(=O)N2CCc3cc(OC)c(C(F)(F)F)cc32)cc(-c2cccnc2)c1,Plasmodium falciparum,whole cell extended time,3D7,72 h,IC50,700 nM
